Measurements gathered from unrelated publications.
Organism: Klebsiella pneumoniae

CC[C@@H](C)[C@@H](N)C(=O)N[C@@H](C(=O)N[C@H](Cc1ccc(O)cc1)C(=O)N[C@@H](C(=O)N[C@H](CCN)C(=O)N[C@H](CC(C)C)C(=O)N[C@H](CO)C(=O)N[C@H](CCN)C(=O)N[C@@H](C(=O)N[C@H](CCN)C(=O)N[C@H](Cc1c[nH]cn1)C(=O)N[C@H](CCN)C(=O)N[C@H](C)C(=O)N[C@H](CCN)C(=O)N[C@H](CCN)C(N)=O)[C@H](C)CC)[C@H](C)CC)[C@H](C)CC
MIC (broth microdilution; CDC 0004, Mueller-Hinton broth): 4 µg/mL

CN(C)c1ccc(O)c2c1C[C@H]1C[C@H]3[C@H](N(C)C)C(O)=C(C(N)=O)C(=O)[C@@]3(O)C(O)=C1C2=O
MIC (broth microdilution; ATCC 43816 acrAB overexpressor): 2 µg/mL

CC[C@H](C)[C@H](N)C(=O)N[C@@H](CC(C)C)C(=O)NCC(=O)N[C@H](CCCNC(=N)N)C(=O)N[C@H](C(=O)N[C@@H](Cc1ccccc1)C(=O)N[C@@H](CCCCN)C(=O)NCC(=O)N[C@H](C(=O)N[C@@H](CCCCN)C(=O)N[C@@H](CC(=O)O)C(=O)N[C@H](C(=O)N[C@@H](CC(C)C)C(N)=O)[C@@H](C)CC)[C@@H](C)CC)[C@@H](C)CC
MIC (broth microdilution; ATCC 27736, Mueller-Hinton broth; 16 h, 37 °C): > 50 µM

CC[C@H](C)[C@H](NC(=O)[C@H](Cc1ccc(O)cc1)NC(=O)[C@@H](NC(=O)[C@H](Cc1ccc(O)cc1)NC(=O)[C@@H]1CCCN1C(=O)[C@@H](NC(=O)[C@H](C)N)[C@@H](C)CC)[C@@H](C)CC)C(=O)N[C@@H](Cc1c[nH]c2ccccc12)C(=O)N[C@@H](CCCNC(=N)N)C(=O)N[C@@H](CC(C)C)C(=O)N[C@@H](CC(C)C)C(=O)N[C@@H](CCCNC(=N)N)C(=O)N[C@@H](CCCCN)C(=O)NCC(=O)O
MIC (broth microdilution; ATCC 700603; 18 h, 37 °C): 15 µM

CN(C)[C@@H]1C(O)=C(C(N)=O)C(=O)[C@@]2(O)C(O)=C3C(=O)c4c(O)c(N)nc(Cl)c4C[C@H]3C[C@@H]12
MIC (tet(A)-carrying): > 32 µg/mL

CN(C)c1cc(NC(=O)CNC(C)(C)C)c(O)c2c1C[C@H]1C[C@H]3[C@H](N(C)C)C(O)=C(C(N)=O)C(=O)[C@@]3(O)C(O)=C1C2=O
MIC (broth microdilution; KPC-25 producing): 2 µg/mL

CCCC(=O)N[C@@H](CCCCN)C(=O)N[C@@H](CCCCN)C(=O)N[C@@H](C)C(=O)N[C@@H](CC(C)C)C(=O)N[C@@H](CCCCN)C(=O)N[C@@H](CC(C)C)C(=O)N[C@@H](C)C(=O)N[C@@H](CCCCN)C(=O)N[C@@H](CCCCN)C(=O)N1CCC[C@H]1C(=O)N[C@@H](CC(C)C)C(=O)N[C@@H](CCCCN)C(=O)N[C@@H](CC(C)C)C(=O)N[C@@H](CC(C)C)C(=O)N[C@@H](CCCCN)C(N)=O
MIC (broth microdilution; ATCC 700603; 18 h, 37 °C, compound alone): > 80 µM

CC[C@H](C)[C@H](NC(=O)[C@H](CCCCN)NC(=O)[C@H](CCCCN)NC(=O)[C@H](CCCCN)NC(=O)[C@H](CCCCN)NC(=O)[C@H](CCCCN)NC(=O)[C@@H](N)CCCCN)C(=O)N[C@@H](CO)C(=O)N[C@@H](Cc1ccccc1)C(=O)N[C@@H](CC(C)C)C(=O)NCC(=O)N[C@@H](CO)C(=O)N[C@@H](CCCCN)C(=O)N[C@H](C(=O)N[C@H](C(=O)N[C@H](C(=O)N[C@@H](CC(C)C)C(=O)N[C@@H](CC(C)C)C(=O)N[C@@H](CCCCN)C(=O)N[C@@H](CCCNC(=N)N)C(N)=O)C(C)C)C(C)C)C(C)C
MIC (broth microdilution; ATCC 13883; highest value reported): 8 µM

COc1ccc2ccc(O)c(/C=N/[C@H]3CCCC[C@H]3/N=C/c3ccc(-c4ccccc4)cc3O)c2c1
MIC (bacterial growth, broth microdilution; carbapenem-resistant): > 40 µM

CCNc1nc(Cl)c2c(c1O)C(=O)C1=C(O)[C@]3(O)C(=O)C(C(N)=O)=C(O)[C@@H](N(C)C)[C@@H]3C[C@@H]1C2.Cl.Cl.Cl
MIC (tet(A)-carrying): 32 µg/mL

A few entries again:
CN(C)c1ccc(O)c2c1C[C@H]1C[C@H]3[C@H](N(C)C)C(O)=C(C(N)=O)C(=O)[C@@]3(O)C(O)=C1C2=O
MIC (broth microdilution; ATCC 43816 acrAB overexpressor): 2 µg/mL
